Published values gathered from unrelated publications.
A part holds a random share of what one study measured.

Block 1
Target: Interferon regulatory factor 5, full length, phosphomimetic (IRF5, Homo sapiens, UniProt Q13568-2, residues 1-514, S451D/S453D/S456D/S462D)
Technique: protein-binding microarray
Form: double-stranded DNA, one strand shown
Sample: in vitro
Concentration: 940 nM top
Setting: 60-bp whole probe
With: salmon DNA 0.4 mg/ml
Reference: random background probes
Reading: higher = stronger binding
Constant ends, left off below: GCCTAGCAC … GTCTTGATTCGCTTGACGCTGCTG
`TTAGATCTCAGTTTCGATTTGTGCTAG` — result for “fitted relative affinity”: 7.9 z-score.
Under “fitted relative affinity”, `ATAGATCTCAGACTGGATTAGTGCTAG` is recorded as -0.227 z-score.
`GACGGACTGGGGACTGTGGACGTGCTA` — result for “fitted relative affinity”: -0.152 z-score.
`GAAGGTCTCCTTTTCCTGACGTGCTAG` — result for “fitted relative affinity”: 0.273 z-score.
Under “fitted relative affinity”, `TCATTTCTTTTTTTCTTACTGTGCTAG` is recorded as 1.86 z-score.
For `GACGGGCTCCTACTGCTGACGTGCTAG`, “fitted relative affinity” read -0.25 z-score.
`GACGGATTGGGGACTGGGGACGTGCTA`: “fitted relative affinity” 0.147 z-score.
`GACGGTATCGACTTACGGGACGTGCTA` — result for “fitted relative affinity”: 4.93 z-score.
Under “fitted relative affinity”, `TCAAAAATGGAAACTCGTACTGTGCTA` is recorded as 0.467 z-score.
For `TTAGGTTGCGGGTATCGGTTAGTGCTA`, “fitted relative affinity” read 3.15 z-score.
`GACGATTTAGGGTATCGAGACGTGCTA` — result for “fitted relative affinity”: 0.216 z-score.
`GACGGACTAGGTATCGGGACGTGCTAG`: “fitted relative affinity” 0.897 z-score.
`TTAAATTTCGGGACTGGATTAGTGCTA` — result for “fitted relative affinity”: 0.409 z-score.
`GACGGACTGCTTTTCCTGAAGTGCTAG` — result for “fitted relative affinity”: -0.421 z-score.
For `TTAGAACTGGGGTACCGATTAGTGCTA`, “fitted relative affinity” read 0.133 z-score.
`CTAGAACTGAGTTTCGATTAGTGCTAG` — result for “fitted relative affinity”: 7.96 z-score.
Under “fitted relative affinity”, `ACATCCAAATCCACCATTCAGTGCTAG` is recorded as 1.41 z-score.
For `GACGATACCGGGACTGGAGACGTGCTA`, “fitted relative affinity” read 0.244 z-score.
`TTAGGACTGGACTCTCGGTTAGTGCTA`: “fitted relative affinity” 1.34 z-score.
`CACTTTCTTTACTTCACTCTGTGCTAG`: “fitted relative affinity” 2.82 z-score.
`TCAATCTTAGATATTAAACTGTGCTAG`: “fitted relative affinity” 0.0867 z-score.
Under “fitted relative affinity”, `TTAAGTTTCGGACTGGGTTAGTGCTAG` is recorded as 7.5 z-score.
`GACGGTTTCCGACTGGGGACGTGCTAG`: “fitted relative affinity” 0.501 z-score.
Under “fitted relative affinity”, `GACGATATCAGACAGGAGACGTGCTAG` is recorded as -0.392 z-score.
`GTCGGTATCGACTATCGGGACGTGCTA`: “fitted relative affinity” 5.95 z-score.

Block 2
Target: RING finger protein unkempt homolog, zinc fingers 1-6, GST-SBP tag (UNK, Homo sapiens, UniProt Q9C0B0, residues 30-357)
Technique: RNA Bind-n-Seq
Form: RNA
Sample: in vitro
Concentration: not given
Setting: RNA with constant flanks, human-mouse chimeric sites, ends assumed
Reference: input RNA pool
Reading: higher = stronger binding
Constant ends, left off below: GGGAGUUCUACAGUCCGACGAUC … CAACAGAGGAUUGAGCAUCA
Construct (chain): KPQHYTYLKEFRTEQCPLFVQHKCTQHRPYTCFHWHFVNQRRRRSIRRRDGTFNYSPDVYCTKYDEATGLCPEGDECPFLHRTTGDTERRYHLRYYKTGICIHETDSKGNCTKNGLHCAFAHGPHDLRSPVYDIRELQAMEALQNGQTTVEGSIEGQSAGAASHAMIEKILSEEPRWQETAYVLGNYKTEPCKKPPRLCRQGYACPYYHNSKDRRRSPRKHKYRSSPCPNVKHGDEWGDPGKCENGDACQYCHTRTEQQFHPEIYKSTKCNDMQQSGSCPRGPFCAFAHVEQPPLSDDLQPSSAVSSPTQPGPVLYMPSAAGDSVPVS
`UCCUUGGAACCCAGUCAUAUAGGUGACCUGCAAAAAGCAGACACCAGUAGUCAAGGUGCUUUAGUGUUUCUCUCAAAGGACUACGAGAUAGAAAAUCAAAAUCCCCUGGCCUCUCCUACG` has a bound/input enrichment of 1.58 ratio.
`AUUCCGAUUAUGGACACCGGUGAAAACCCAGAGGUUCCCUUCCCCCGGGACAUGAUUGACUUAGAGGCCAAUUUCGAGAAGAUUGAAAAUGAACUGAAGGAAAUCAACACUAACCAGGAA` has a bound/input enrichment of 0.0831 ratio.
`UUGGAAGGACCAGAGCCUAAUCAACUGAAACCACUAGUCAUACAGGCUAUGCCCACCCUAAUAGAACUAAUGAAAGACCCCAGUGUAGUUGUUCGAGAUACAGCUGCGUGGACUGUGGGC` has a bound/input enrichment of 1.1 ratio.
With `GCAAGAGAUGAUGAGGCGGCAGCUGUUGCCCUUUCCUCUCUCGUUCAUGCUUUGGAUGAGUUAAACAUGGUCGCCAUCGUCCGAUAUGCUUAUGACAAAAGAUCUAAUCCUCAAGUCGGU` the bound/input enrichment was 0.246 ratio.
For `CACACACUCUUCUGCGGGACCCUCAUCUUGCAGGCCCGAGCCUACGUGGGACCGCACGUCCUGGCAGUGGUGACCCGGACAGGGUUCUGCACGGCAAAAGGGGGCCUGGUGAGCUCCAUC`, the bound/input enrichment was 0.06 ratio.
The bound/input enrichment of `UCAACAGACAACAUCAAAUACCAGCCUAAAGGGGGGCAGGUACAAAUUGUUACUAAGAAAAUAGACCUAAGCCAUGUGACAUCCAAAUGUGGCUCUCUGAAGAACAUCCGUCACAGGCCA` is reported as 0.507 ratio.
`GGCUGCUGGUGACUGUCCUGGAGUGGCUGGAGUUCCCGCCGGAGCGCGGCCAGACUAAUUUUAGAAAAUGCCAAGUAGGAAGUUUGUCGAUGGUGAAGUGGUCAGAGGCCGAUGGCCUGG` has a bound/input enrichment of 1.95 ratio.
With `GCUCUUGGGAAUGUAAUCAGCGCCUUGGGAGACAAGAGCAAGAGGGCCACCCAUGUCCCUUACAGAGACUCUAAGCUGACAAGACUCUUGCAGGAUUCCCUUGGGGGUAACAGCCAAACC` the bound/input enrichment was 0.113 ratio.
For `GCCACCAGAUCCCAGAAACAUGACCCUUGCUGCCUACAAAGAGAAGAUGAAGGAGCUCCCACUAGUGUCCUUGUUCUGCUCUUGCUUCCUGGCCGAUCCCCUGAAUAAGUCGUCCUACAA`, the bound/input enrichment was 0.544 ratio.
For `GGACAUCUGUCAAAUUGUUAUGUUCCUGUGAAACAAGUGAGCACUUUGAUACACUUCAUCUGCUUGUACAUCUGUAUGAUAGAGAAAUGUAAAUAUGUUAAUCCAAGAUGAAUUCAACUU`, the bound/input enrichment was 0.201 ratio.
`AGCACAACACCAGCUAAGCUAAGAAAUCCUUGUACAAGUGAACAGAACUGCACCAGCCCAUUUAGCUACAAAAAUGUGCUUAGUCUUACUGACAGAGGAGAGUUUUUCAAUGAACUUGUU` gave a bound/input enrichment of 1.19 ratio.

Block 3
Target: RNA binding protein fox-1 homolog 2, RRM domain, GST-SBP tag (RBFOX2, Homo sapiens, UniProt O43251-10, residues 100-194)
Technique: RNA Bind-n-Seq
Form: RNA
Sample: in vitro
Concentration: 365 nM
Setting: natural RNA segment, single round, ends assumed
Reference: no-protein control
Reading: higher = stronger binding
Constant ends, left off below: GGGAGUUCUACAGUCCGACGAUC … UGGAAUUCUCGGGUGCCAA
Construct (chain): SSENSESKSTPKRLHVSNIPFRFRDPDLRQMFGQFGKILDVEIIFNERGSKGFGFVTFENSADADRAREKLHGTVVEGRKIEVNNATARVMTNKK
For `CUGGGGACCAGCACAGCACCUGAAGCCAUGUGGGACAGUUGGGCUUUGUUCAUUCUAGCCACGGGGAUGAAAGGGAUCUUUUGCAUUGCAGAGAUUUUAUAUAUAUUUUG`, “RBNS enrichment (R)” read 0.327.
`UCCCGGUGGUGGGAUCCACGCUGGGCCUAGGAUGGGACGUUUUUCUUCUUGGGCCCGGUCCACAGGUCCAAGGACACCCUCCCUCCAGGGUCCUCUCUUCCACAGUGGCG`: “RBNS enrichment (R)” 0.278.
For `UGCACUUUAACCAGCCCUGUGAUCCGUACGAGUGUAGCAGCAAGAGGACUCUGUUGACAGGCACGUUUAUUGUUGGGUUAUUUGUUCCAGAGCACCCCAGUCUGUGACAA`, “RBNS enrichment (R)” read 2.42.
For `UUCAUUUUCCUUUUUAAAAUUUGUCUUUUAAAUAAACAAACAGAACCCUCUGUGAGGUUGGUGAGAGAAGGGUGCCGUGCUCCUUCCCUGUGCUCUGCCUCUAAGGCUGA`, “RBNS enrichment (R)” read 0.31.
`UUCAGGCCUAGACAUACAUGAAACUUAUUUUUGAGGUUUUUGUGCUUUUGGUAUUUUCAUGUGUUACCUGCAUGUGAAUUUCUCAUGACUUUGUUUUUCUAGUUUCUUUU`: “RBNS enrichment (R)” 0.629.
Under “RBNS enrichment (R)”, `UUAAAGGUUCUGUGUCAGCUAUUUUCAUUGCCAAUGAAAUGUAUUCAGUAUUGUAGAUACUAAACCAGUUUUCCCACAUGAAAGGCAGGAAGAGUUUUGAUUCUGUCCUU` is recorded as 0.672.
`CAAGUCUCACACUAAACAUGCCCGGGCUUCGAUGUGCCUGGAGGAUUUCCCCACAGGGACCCACGCACCUCCCUGUAUCUGCGCAGCUUGCUCGUGUGGCUGGAAGCGCU`: “RBNS enrichment (R)” 0.225.
`CCGCAGGGUUAGAGUGGGCUCCUUUCUUUUUGGAAUCCUUUUCUUCUCCUUUGGUAGCAGCUCCCUGCCUCCAGGGCUUCCGCCACCAGCGUCUCUGCUGUGUUGCGCAG` — result for “RBNS enrichment (R)”: 0.273.
`UCCUUUAAAAGUUUAAUGAUACUUCUGAUGUUUCGGAACAGUCAUUUCACCUACUAUUUCUGAAUAUAUUUUGCAAAUUGAAUUGGAAUAGGAAUUGAUAAUAGCAGUCU` — result for “RBNS enrichment (R)”: 0.477.
For `CACUUGCUGUCCGGUUUCCUAGGGGCUUCCUGUGCCCCUUCCCCAGCUAUCCUCCAGGUGGCUAGGGACAGUCUAUUCUGCUGCAACUGGAAAGUAGAGGGAACCGGCAC`, “RBNS enrichment (R)” read 0.322.
Under “RBNS enrichment (R)”, `UUGGUGUGGAGGGUACUGCCUUGGCCUGUGGCGUUUGUCCUGUCUCAUCUCUCCCAGCAUCCAUAGGAACACACUAACAUUGGGAUGGCAGGCACAUCCUGGUACUGGCA` is recorded as 2.28.
For `CGCUCUAAAAAUUACCAGAGUAAGAAAAAGCUAGGUACUUUAAAGUGAGUUUGAGAAACAAGUUGAAACUAAAAUUAAAAUACCAGCCAUUUAGGUGCUUUCUCUGGCAU`, “RBNS enrichment (R)” read 0.386.

Block 4
Target: Histone acetyltransferase KAT6A, winged helix 1, GST fusion (KAT6A, Homo sapiens, UniProt Q92794, residues 1-85)
Technique: protein binding microarray
Form: double-stranded DNA, one strand shown
Sample: in vitro
Concentration: not given
Setting: 8-mer, flanks averaged, mean of 2 arrays, mostly near background
Reference: not given
Reading: higher = stronger binding
Construct (chain): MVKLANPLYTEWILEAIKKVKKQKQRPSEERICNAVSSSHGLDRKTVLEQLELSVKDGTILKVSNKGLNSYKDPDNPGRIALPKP
For `AATTTATG`, the E-score was -0.142.
`CGGATGGA` has an E-score of -0.0552.
With `CTGACCCC` the E-score was -0.0469.
For `AAAAAGTA`, the E-score was -0.00372.
`GGAAGAGA` has an E-score of -0.0506.
With `AGCGAGGC` the E-score was 0.0639.
`CGCGAGCC` has an E-score of 0.375.
`GTGTGCTA` has an E-score of -0.0966.
With `TCGCAGAA` the E-score was -0.0809.
With `AATGATAG` the E-score was 0.0675.
The E-score of `ACTGAACC` is reported as 0.0163.
`AACTGATC` has an E-score of -0.0765.
With `AACTCGAT` the E-score was -0.112.
With `TGACCGAA` the E-score was 0.0588.
`AACCCGAC` has an E-score of 0.278.
`CACCTCTC` gave an E-score of -0.0166.
The E-score of `ACCAGTTC` is reported as -0.00319.
For `AAATCAGC`, the E-score was -0.203.
The E-score of `CGATTATA` is reported as -0.029.
For `ACGCCGAT`, the E-score was 0.294.
With `ATCAGCAA` the E-score was -0.171.
`ACTGGTGA` gave an E-score of -0.0476.
`CACAACCG` gave an E-score of -0.0216.
`AAAAGCCA` gave an E-score of -0.0335.
For `ATACTCTA`, the E-score was -0.000585.

Some of these lines once more (block 4):
`CACCTCTC` gave an E-score of -0.0166.
For `AAAAAGTA`, the E-score was -0.00372.
`AACCCGAC` has an E-score of 0.278.
With `TCGCAGAA` the E-score was -0.0809.
`CACAACCG` gave an E-score of -0.0216.
`AAAAGCCA` gave an E-score of -0.0335.
`CGCGAGCC` has an E-score of 0.375.
With `ATCAGCAA` the E-score was -0.171.
`AACTGATC` has an E-score of -0.0765.
`GGAAGAGA` has an E-score of -0.0506.
For `ACGCCGAT`, the E-score was 0.294.
